# Results gathered from unrelated publications.
# Parts stem from different laboratories: compare values within a part only.

# Block 1
# Target: TAR DNA-binding protein 43, full length, His tag (TARDBP, Homo sapiens, UniProt Q13148, residues 1-414)
# Method: RNA Bind-n-Seq
# Form: RNA
# Sample: in vitro
# Concentration: 20 nM
# Notes: 6-mer, flanks averaged, single round
# With: 150 mM KCl
# Baseline: input library
# Direction: higher = stronger binding
Oligonucleotide,6-mer enrichment (R)
CCCUUA,0.646
CGUGCA,0.853
GGUAAC,0.921
GACUUC,0.595

# Block 2
# Target: Prothrombin, mature alpha-thrombin (F2, Homo sapiens, UniProt P00734)
# Method: aptamer microarray, sandwich
# Form: DNA with 2'F-ANA
# Sample: in vitro
# Concentration: 200 nM
# Notes: whole 15-mer aptamer, many near background
# With: Cy3 exosite-II aptamer, 400 nM
# Direction: higher = stronger binding
# Oligonucleotide: GGTTGGTGTGGTTGG
Modification,mean fluorescence intensity [a.u.]
2'F-ANA at 3 4 8 10 11,243
2'F-ANA at 1 2 8 11 14,60.3
2'F-ANA at 1 5 6 8 9 10 11 14,139
2'F-ANA at 4 5 6 7 9 12 13 14,48.3
2'F-ANA at 1 2 4 5 6 7 9 10 11 12 13 14,50.4
2'F-ANA at 3 5 7 12 13 14,64.1

# Block 3
# Target: Histone acetyltransferase KAT6A, winged helix 1, GST fusion (KAT6A, Homo sapiens, UniProt Q92794, residues 1-85)
# Method: protein binding microarray
# Form: double-stranded DNA, one strand shown
# Sample: in vitro
# Concentration: not given
# Notes: 8-mer, flanks averaged, mean of 2 arrays, mostly near background
# Baseline: not given
# Direction: higher = stronger binding
# Target sequence (chain): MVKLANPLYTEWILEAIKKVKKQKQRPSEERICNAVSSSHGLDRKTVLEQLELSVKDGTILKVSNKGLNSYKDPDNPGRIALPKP
Oligonucleotide,E-score
ATTTAGGC,-0.0713
CAGCATCC,-0.0658
GGGCGACC,0.155
GCAACACA,-0.025

# Mixed results
Substance,target,assay,system,conditions,how to read,endpoint,result
"PhoQ, residues 284 288 289 292 302 303 AGCYAI","PhoP, residues 12 14 15 18 19 LHTVM (Escherichia coli, UniProt P23836)","Sort-seq, measured: YFP reporter",E. coli,"PhoQ-PhoP variant library, with: 10 µM Mg2+","baseline: high Mg2+ state, higher = stronger signaling",fold induction,6

# Excerpt of the above (block 1):
Oligonucleotide,6-mer enrichment (R)
CCCUUA,0.646
